Published values collected from several papers.
Lines come from different studies, so protocols differ. ± marks the error that the study gave.

COc1cc(CNC(=O)C[C@H](C)CCC=C(C)C)ccc1OCc1cn(-c2ccccc2F)nn1 — growth percent (Malme-3M melanoma cells; SRB; 10 µM, 48 h): 78.3%
CCNc1cc2c(cc1C)C1(c3cc(C)c(NCC)cc3O2)c2ccccc2C(=O)N1N=Cc1c[c-]c(-c2ccccn2)cc1.Cc1c(C)c(-c2ccc(-c3ccccc3)cc2)[c-](C)c1C.[Cl-].[Ir+3] — NF-κB p65 protein level (A549; flow cytometry; concentration not given, 24 h; relative to: untreated): increased
[Cl][Pd-]1([Cl])[S]C(Nc2ccccc2)=N[N+]1=Cc1cccs1 — cytotoxic concentration (HEL human lung fibroblasts; altered cell morphology, microscopy; confluent cultures): 100 µM
COc1cc(CNC(=O)C[C@H](C)CCC=C(C)C)ccc1OCc1cn(-c2ccccc2)nn1 — growth percent (SR leukaemia cells; SRB; 10 µM, 48 h): 62.3%
CCN(CC)CC(=O)Nc1cccc(-n2cc(-c3ccc4ccc(-c5cn(-c6cccc(NC(=O)CN(CC)CC)c6)nn5)cc4c3)nn2)c1 — mRNA level (RCC4; qRT-PCR, refers to: HIF-1α; 5 x IC50, 6 h; relative to: untreated): 4.2%
COc1cc(CNC(=O)C[C@H](C)CCC=C(C)C)ccc1OCc1cn(-c2cccc(C(F)(F)F)c2)nn1 — growth percent (SF-295 CNS cancer cells; SRB; 10 µM, 48 h): 72.9%
COc1ccc(CC(C)=C(c2ccc(Cl)cc2)c2ccc(OCCN3CCCCCC3)cc2)cc1 — growth inhibition (NCI-60 tumour cell lines; 10 µM, mean over cell lines): 22.4%
CC(=O)OC[C@H]1O[C@@H](Sc2sc(C(=O)c3ccc(Br)cc3)c(N)c2-c2nc3ccccc3s2)[C@H](OC(C)=O)[C@@H](OC(C)=O)[C@H]1OC(C)=O — growth (HCC 2998; SRB; 10 µM, 48 h; relative to: untreated): 108%
COc1cc(CNC(=O)C[C@H](C)CCC=C(C)C)ccc1OCc1cn(-c2ccc(Cl)c(Cl)c2)nn1 — growth percent (OVCAR-8 ovarian cancer cells; SRB; 10 µM, 48 h): 46.3%
Cc1cccc(O[C@H]2CCC[C@@H](C(C)CNCc3ccncc3)C2)c1 (relative stereo) — NADPH level (MC65 Tet-Off cells; concentration not given, dose-dependent): increased
FC(F)(F)c1ccnc(-c2cc(C(F)(F)F)ccn2)c1.FC(F)(F)c1ccnc(-c2cc(C(F)(F)F)ccn2)c1.[Cl-].[Cl-].[Ru+2].c1csc(-c2ccc(-c3ccc(-c4ccc(-c5nc6c7cccnc7c7ncccc7c6[nH]5)s4)s3)s2)c1 — phototherapeutic index decrease (SK-MEL-28; normoxia, added: green light 523 nm; relative to: visible light): 10 fold
CCCCCCCCCCCCCCOc1c(O)cc(C(=O)O[C@@H]2Cc3c(O)cc(O)cc3O[C@@H]2c2cc(O)c(O)c(O)c2)cc1O — protein level (U-87 MG; western blot, refers to: p62/SQSTM1; 50 µM, 24 h): decreased
CC1=CC(OC(=O)c2ccccc2)C2(COC(=O)c3ccccc3)CCC(=C(C)C)C2C(O)CC2(C)OC2CC1 (stereo not shown) — glucose consumption (HepG2, palmitic acid-induced insulin resistance; 5.0 µM, 24 h): 4.59 ± 0.45 mM
CCC12CCc3c(c4ccccc4n3C)CCN(CC3OC31)C2 (stereo not shown) — TLR4 and MyD88 protein level (BV-2; western blot; concentration not given, added: LPS): inhibited
COc1cc(CNC(=O)C[C@H](C)CCC=C(C)C)ccc1OCc1cn(-c2ccccc2[N+](=O)[O-])nn1 — growth percent (MDA-MB-468 breast cancer cells; SRB; 10 µM, 48 h): 31.7%
Cc1cc(-c2ccccc2)c2ccc3c(-c4ccccc4)cc(C)nc3c2n1.[Cl-].[Cl-].[Ru+2].c1ccc(-c2ccccn2)nc1.c1ccc(-c2ccccn2)nc1 — late apoptotic necrotic cells (B16-F10; annexin V/PI; 10 µM, 24 h, dark): 21%
COc1cc(CNC(=O)C[C@H](C)CCC=C(C)C)ccc1OCc1cn(-c2ccccc2Cl)nn1 — growth percent (OVCAR-8 ovarian cancer cells; SRB; 10 µM, 48 h): 49.8%
Cc1ccc(NS(=O)(=O)c2cccc(/C=C/C(=O)NO)c2)cc1 — relative potency (MOPC-315; cell growth; 24 h; relative to: belinostat): 1.99
CN1CCC(N[C@@H]2CCc3[nH]c4c(C(N)=O)ccc(-c5ccccc5Cl)c4c3C2)CC1 — increase in apoptotic cells (HCT-116 wild type; annexin V-FITC/PI; 50 nM): 33.2%

A few entries again:
COc1cc(CNC(=O)C[C@H](C)CCC=C(C)C)ccc1OCc1cn(-c2ccccc2[N+](=O)[O-])nn1 — growth percent (MDA-MB-468 breast cancer cells; SRB; 10 µM, 48 h): 31.7%
COc1ccc(CC(C)=C(c2ccc(Cl)cc2)c2ccc(OCCN3CCCCCC3)cc2)cc1 — growth inhibition (NCI-60 tumour cell lines; 10 µM, mean over cell lines): 22.4%
